Assay results of several laboratories.
± gives the spread as reported.
Sample: plasma

| Compound | test | test system | setting | AUC(0-inf) |
| --- | --- | --- | --- | --- |
| CC[C@H](C)CCCCC(=O)N[C@@H](CCN)C(=O)N[C@H](C(=O)N[C@@H](CCN)C(=O)N[C@H]1CCNC(=O)[C@H]([C@@H](C)O)NC(=O)[C@H](CCN)NC(=O)[C@H](CCN)NC(=O)[C@H](CC(C)C)NC(=O)[C@@H](Cc2ccccc2)NC(=O)[C@H](CCN)NC1=O)[C@@H](C)O |  | mild renal insufficiency patients | IV, 0.75 mg/kg, geometric least squares mean | 20700 ng·h/mL |
| CC(=O)N[C@H]1CC[C@H](NC(=O)CN2CCN(c3nncc(-c4ccc(C)cc4)n3)CC2)CC1 |  | men aged ≥65 years | oral, 100 mg single dose, study | 4730 ng·h/mL |
| COc1cc(C(=O)NC2CCN(C)CC2)c(F)cc1Nc1ncc(C(F)(F)F)c(Oc2cccc3c2C(=O)N(C)C3)n1 |  | cancer patients | oral, 10 mg single dose, cycle 1 day 1, geometric mean | 0.527 µM·h |
| C[C@H]1CN(C(=O)CC#N)[C@]12CCN(c1ncnc3[nH]ccc13)C2 |  | healthy Japanese males | oral, 5 mg single dose | 175 ng·h/mL |
| CCCCCCCCCCCCCCCC(=O)N[C@@H](CCC(=O)NCCCC[C@@H]1NC(=O)[C@H]([C@@H](C)CC)NC(=O)[C@@H](NC(=O)[C@@H]2CCCN2C(=O)[C@H](Cc2ccccc2)NC(=O)[C@H](Cc2c[nH]cn2)NC(=O)[C@@H](NC(=O)[C@H](CC(=O)O)NC(=O)CC(C)C)[C@@H](C)O)CSSC[C@@H](C(=O)N[C@@H](CCCCN)C(N)=O)NC(=O)CNC(=O)[C@H](CCCCN)NC(=O)[C@H](CO)NC(=O)[C@H](CCCNC(=N)N)NC(=O)[C@@H]2CCCN2C(=O)[C@H](CCC(=O)O)NC(=O)[C@H](Cc2ccccc2)NC1=O)C(=O)O |  | healthy volunteers | subcutaneous, 30 mg single, lyophilised formulation | 26400 ± 6800 ng·h/mL |
| CCc1nc2c(C)cc(N3CCN(CC(=O)N4CC(O)C4)CC3)cn2c1N(C)c1nc(-c2ccc(F)cc2)c(C#N)s1 |  | healthy volunteers, fed | oral, 600 mg single dose, day 1, suspension | 53500 ng·h/mL |
| Oc1ccc([C@@H](O)c2cc(-c3ncnc4cc(N5CCOCC5)ccc34)c(F)cc2Cl)nn1 | geometric mean | healthy volunteers | oral, 100 mg, fasted oral suspension | 524 ng·h/mL |
| CS(=O)(=O)c1ccc([C@@H](O)[C@@H](CF)NC(=O)C(Cl)Cl)cc1 |  | chicken (Arbor Acres) | oral, 20 mg/kg, together with: quercetin 20 mg/kg pretreatment | 44600 ± 4710 ng·h/mL |
| C[C@@H](N)C1CCN(S(=O)(=O)c2cccc3cnccc23)CC1 |  | healthy volunteers, fasted | oral, 150 mg | 36.2 ng·h/mL |

A few entries again:
| Compound | test | test system | setting | AUC(0-inf) |
| --- | --- | --- | --- | --- |
| C[C@H]1CN(C(=O)CC#N)[C@]12CCN(c1ncnc3[nH]ccc13)C2 |  | healthy Japanese males | oral, 5 mg single dose | 175 ng·h/mL |
